Assay results pooled from the literature.
Parts stem from different laboratories: compare values within a part only. Changes are numbered by the printed parent chain.

Series 1
Target: ABI1, truncated, D143A, DHFR fusion (Arabidopsis thaliana)
Method: DHFR PCA, deep sequencing
Medium: yeast
Setting: methotrexate growth selection, single substitutions
Added: (+)-ABA 0 µM
Reference: wild-type fitted maximum
Direction: higher = stronger binding
Parent: PYL1, truncated, DHFR fusion (Arabidopsis thaliana); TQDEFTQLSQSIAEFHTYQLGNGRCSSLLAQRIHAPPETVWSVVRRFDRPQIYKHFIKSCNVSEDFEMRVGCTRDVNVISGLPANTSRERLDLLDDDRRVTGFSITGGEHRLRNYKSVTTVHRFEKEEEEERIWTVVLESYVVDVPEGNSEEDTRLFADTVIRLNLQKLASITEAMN
Variant	relative binding score
E64Y	0.476%
H34F	20.9%
R111M	25.7%
S59R	-2.45%
V100N	0.434%
S26Y	4.76%
T86W	62.7%
L138H	-4.13%
T101A	2.44%
D159Y	1.32%
V43S	-1.51%
F66R	-0.106%
E125S	35.3%
R99I	-2.24%

Series 2
Target: TAR DNA-binding protein 43, full length, His tag (TARDBP, Homo sapiens, UniProt Q13148, residues 1-414)
Method: RNA Bind-n-Seq
Molecule type: RNA
Medium: in vitro
Concentration: 20 nM
Setting: 6-mer, flanks averaged, single round
Added: 150 mM LiCl
Reference: input library
Direction: higher = stronger binding
Sequence	6-mer enrichment (R)
GUGCUG	1.14
CCACGG	0.91
UGGUGC	1.18
GCGCUC	0.894
CCCCCC	1.66
GAAGAA	0.975
GUUGUU	1.37
CGGACC	0.929

Series 3
Target: CCND3, cyclin fold, Cln2 fusion (human)
Method: yeast growth competition, sequencing
Medium: yeast
Setting: weak parent motif
Reference: not given
Direction: higher = stronger binding
Parent: MASTL docking peptide (human); PMIAKNLMCELDE
Variant	normalised enrichment score
PMIAKNLMEELDE [C9E]	-0.485
PSIAKNLMCELDE [M2S]	0.0027
PMIAKNLMCETDE [L11T]	-0.0253
PMFAKNLMCELDE [I3F]	-0.0767
PMIAKNLMCEIDE [L11I]	0.346
PMNAKNLMCELDE [I3N]	0.105
PMIAKNLMCELEE [D12E]	-0.112
PMIAKNLMCELWE [D12W]	-0.292

Other studies, line by line
Substance	target	test	system	setting	scale	quantity	result
PhoQ, residues 284 288 289 292 302 303 GASLAW	PhoP, residues 12 14 15 18 19 IQFRS (Escherichia coli, UniProt P23836)	Sort-seq, refers to: YFP reporter	E. coli	PhoQ-PhoP variant library, added: 10 µM Mg2+	reference: high Mg2+ state, higher = stronger signaling	fold induction	7.37

Some of these lines once more (series 3):
Variant	normalised enrichment score
PMIAKNLMCETDE [L11T]	-0.0253
PMFAKNLMCELDE [I3F]	-0.0767
